Measured values collected from several papers.
Each numbered part is a random draw from the data of one study; scales do not carry over between parts. Substitutions count along the parent as printed.

Set 1
Target: CCNB2, cyclin fold, Cln2 fusion (human)
Method: yeast growth competition, sequencing
Medium: yeast
Setting: weak parent motif
Reference: not given
Direction: higher = stronger binding
Starting sequence: CDKN1A docking peptide (human); SKACRRLFGPVDS
Change	normalised enrichment score
SKACRRLQGPVDS [F8Q]	0.153
SKACRRLFEPVDS [G9E]	0.128
SKACQRLFGPVDS [R5Q]	-0.199
SKACRHLFGPVDS [R6H]	0.124
SKICRRLFGPVDS [A3I]	0.631
SKACRRLFRPVDS [G9R]	0.0826
SKACRMLFGPVDS [R6M]	0.322
SKACRRLFCPVDS [G9C]	0.189
SKTCRRLFGPVDS [A3T]	0.3
SKAHRRLFGPVDS [C4H]	0.627
SKACRRLFVPVDS [G9V]	0.453
SKACRRLFGYVDS [P10Y]	0.499
SKANRRLFGPVDS [C4N]	-0.0516
STACRRLFGPVDS [K2T]	0.359
SKATRRLFGPVDS [C4T]	0.767
SKACRRLFGPLDS [V11L]	0.148
SKACFRLFGPVDS [R5F]	-0.46
SKACRRWFGPVDS [L7W]	0.281
SKACRRLFGPVES [D12E]	0.00916
SKADRRLFGPVDS [C4D]	0.125
SKACRRLFGPADS [V11A]	0.476
SKQCRRLFGPVDS [A3Q]	0.321
SHACRRLFGPVDS [K2H]	0.256
SKACERLFGPVDS [R5E]	-0.239

Set 2
Target: UBE2V1 UBC core domain (UniProt Q13404)
Method: yeast two-hybrid
Medium: yeast
Setting: mostly zero background
Reference: not given
Direction: higher = stronger interaction
B1: RFPL2 RING domain (UniProt O75678); chain MAALFQEASSCPVCSDYLEKPMSLECGCAVCLKCINSLQKEPHGEDLLCCCSSMVSRKNKIRR
B2: PEX2 RING domain (UniProt P28328); chain DNTLATSGKECALCGEWPTMPHTIGCEHIFCYFCAKSSFLFDVYFTCPKCGTEVHSLQPLK
B3: TRIM3 RING domain (UniProt O75382); chain VQPMDKQFLVCSICLDRYQCPKVLPCLHTFCERCLQNYIPAQSLTLSCPVCRQTSILPEQGV
B4: MSL2 RING domain (UniProt Q9HCI7); chain LLPYFRQSLSCCVCGHLLQDPIAPTNSTCQHYVCKTCKGKKMMMKPSCSWCKDYEQFEENKQ
Target sequence (chain): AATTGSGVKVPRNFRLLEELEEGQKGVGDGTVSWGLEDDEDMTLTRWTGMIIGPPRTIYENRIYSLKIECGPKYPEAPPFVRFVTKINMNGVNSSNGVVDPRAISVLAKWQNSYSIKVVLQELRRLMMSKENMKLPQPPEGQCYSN
Sequence	lacZ reporter activity
B1 (RFPL2 RING domain)	0
B2 (PEX2 RING domain)	0
MANWVFCNRCFQPPHRTSCFSLTNCGHVYCDACLGKGKKNECLICKAPCRTVLLSK (RNF212 RING domain (UniProt Q495C1))	0
KIKDLNEHIVCCLCAGYFVDATTITECLHTFCKSCIVKYLQTSKYCPMCNIKIHETQPLL (PCGF1 RING domain (UniProt Q9BSM1))	0
B3 (TRIM3 RING domain)	0
B4 (MSL2 RING domain)	0

Set 3
Target: ABI1, truncated, D143A, DHFR fusion (Arabidopsis thaliana)
Method: DHFR PCA, deep sequencing
Medium: yeast
Setting: methotrexate growth selection, single substitutions
Together with: (+)-ABA 4.8 µM
Reference: wild-type fitted maximum
Direction: higher = stronger binding
Starting sequence: PYL1, truncated, DHFR fusion (Arabidopsis thaliana); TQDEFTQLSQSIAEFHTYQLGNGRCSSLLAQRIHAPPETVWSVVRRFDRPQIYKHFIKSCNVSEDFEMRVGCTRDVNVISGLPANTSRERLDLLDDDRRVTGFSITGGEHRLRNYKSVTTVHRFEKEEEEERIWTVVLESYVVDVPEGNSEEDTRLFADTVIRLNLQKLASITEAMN
Change	relative binding score
T1M	74.8%
H122A	-6.64%
I133A	92.3%
T120G	-0.391%
S42A	71.2%
Y18A	32.2%
F56P	10.5%
L28I	70.3%
I33N	-34.8%
H16N	3.82%
M176N	52.6%
V136Q	10.2%
C60K	-5.04%
C25I	58%
L93F	52.6%
S26G	61%
S27I	0.434%
N61K	83.1%

Set 4
Target: Phosphate system positive regulatory protein PHO4, full length, GST-tagged (PHO4, Saccharomyces cerevisiae, UniProt P07270, residues 1-312)
Method: competition protein-binding microarray
Molecule type: double-stranded DNA, one strand shown
Medium: in vitro
Concentration: 2 µM
Setting: whole 60-bp probe, lowest competitor level
Together with: Cbf1 competitor, 0.05 µM
Direction: higher = stronger binding
All sequences stand within: … GTCTTGATTCGCTTGACGCTGCTG
Construct (chain): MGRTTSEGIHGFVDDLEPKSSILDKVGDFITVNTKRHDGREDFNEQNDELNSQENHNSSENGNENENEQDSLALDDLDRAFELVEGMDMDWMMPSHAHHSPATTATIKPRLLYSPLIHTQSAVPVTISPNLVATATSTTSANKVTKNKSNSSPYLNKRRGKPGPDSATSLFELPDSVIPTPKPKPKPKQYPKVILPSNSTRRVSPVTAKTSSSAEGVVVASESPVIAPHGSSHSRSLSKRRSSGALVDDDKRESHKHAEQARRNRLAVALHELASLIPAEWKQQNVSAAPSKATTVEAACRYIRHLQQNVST
Strand	fluorescence intensity
TATTAACGCTGCTGTCATGCCATCTCAATGGGAATT	4540 a.u.
GCGCGATAGCGGCAGCGCGTGGCCGGGCAAGGGTCT	8700 a.u.
TGCGCAACAACTTTTCACGTGAGCTTATGTCTAGAA	10200 a.u.
GAACCTGTGGAATTAAGCATGACAATTGGAAAGTCC	4110 a.u.
TGCGCAACAACTTGAATCGTGGGTGTATGTCTAGAA	9390 a.u.
GGCAATTTGTATTGCCATGTGCTGCAGGCATGTCTG	11300 a.u.
GCAATTCCTTTCTGAAACGTGAAAAGATACCGTCAA	7240 a.u.
AAATTACTAAGTTGGAAAGTGGGTGACGCCGTATGA	3530 a.u.
CCAGTTGGTTAAGGCACCGTGCTAATATCGCGGGGA	7690 a.u.
CGTCCTAGTGATTGCACTGTGGGTGCCATGAGGAAG	6380 a.u.
CATACCCAACCTTGCGGGGTGGGTGAAGATATTTGT	4630 a.u.
ACTGCCATGGGTTTTGGCGTGGGTATGTTCACCTCA	5130 a.u.
CATACCCAACCTTGAAACGTGGGTGAAGATATTTGT	13200 a.u.
GTCTTGTCTCATTGAAACGTGGGTGTCCCCACTTCA	13600 a.u.
AAAGCGGTAATTTGTACAGTGGGTGCAGATATCTAT	4120 a.u.
TGCGCAACAACTTGCACGGTGGGTGTATGTCTAGAA	6270 a.u.
CACTTCCTAACCCATCACGGGATACCGAATTGGGTA	6820 a.u.
CTTTCCCGATCTTTTCACGTGCTTTTAGCACATTTG	13100 a.u.

Repeated from above (set 1):
Change	normalised enrichment score
SKACRRLFEPVDS [G9E]	0.128
SKACQRLFGPVDS [R5Q]	-0.199
SKACRHLFGPVDS [R6H]	0.124
SKICRRLFGPVDS [A3I]	0.631
SKACRRLFRPVDS [G9R]	0.0826
SKACRMLFGPVDS [R6M]	0.322
